Measurements pooled from the literature.
Parts stem from different laboratories: compare values within a part only. “And” joins repeats or separate records; there may be more than shown. Positions count from the first letter of the parent shown.

Series 1
Target: Sal-like protein 4, full length isoform A (SALL4, Homo sapiens, UniProt Q9UJQ4, residues 1-1053)
Sequence of UniProt Q9UJQ4 (whole entry, looked up): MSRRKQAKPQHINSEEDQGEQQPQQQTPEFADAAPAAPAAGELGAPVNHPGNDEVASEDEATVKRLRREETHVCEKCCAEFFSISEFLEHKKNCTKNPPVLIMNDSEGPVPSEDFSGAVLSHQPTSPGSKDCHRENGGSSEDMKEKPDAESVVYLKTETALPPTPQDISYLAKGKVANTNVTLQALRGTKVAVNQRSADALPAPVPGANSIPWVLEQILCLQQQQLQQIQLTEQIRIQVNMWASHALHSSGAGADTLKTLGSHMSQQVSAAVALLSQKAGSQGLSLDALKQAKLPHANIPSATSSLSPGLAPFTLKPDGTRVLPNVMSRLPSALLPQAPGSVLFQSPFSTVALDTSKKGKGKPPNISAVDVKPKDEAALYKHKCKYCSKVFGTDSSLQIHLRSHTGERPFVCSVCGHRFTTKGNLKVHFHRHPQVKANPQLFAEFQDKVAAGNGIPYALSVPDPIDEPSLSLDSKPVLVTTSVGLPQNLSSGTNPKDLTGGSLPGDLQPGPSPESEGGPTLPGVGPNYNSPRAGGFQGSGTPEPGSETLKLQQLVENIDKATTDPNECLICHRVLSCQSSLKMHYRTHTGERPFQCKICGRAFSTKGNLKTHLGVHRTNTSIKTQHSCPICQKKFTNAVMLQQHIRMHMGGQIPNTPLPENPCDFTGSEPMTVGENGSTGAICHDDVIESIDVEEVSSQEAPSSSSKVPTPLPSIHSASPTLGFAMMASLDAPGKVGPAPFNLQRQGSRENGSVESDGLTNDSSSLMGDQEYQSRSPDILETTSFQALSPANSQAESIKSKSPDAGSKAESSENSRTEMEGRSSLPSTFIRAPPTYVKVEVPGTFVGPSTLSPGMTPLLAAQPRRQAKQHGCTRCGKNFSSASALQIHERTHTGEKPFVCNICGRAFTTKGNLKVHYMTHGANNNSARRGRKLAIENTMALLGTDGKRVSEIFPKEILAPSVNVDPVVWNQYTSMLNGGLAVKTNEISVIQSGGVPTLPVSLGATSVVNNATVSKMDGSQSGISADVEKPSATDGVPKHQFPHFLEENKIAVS
Technique: universal PBM
Molecule type: double-stranded DNA, one strand shown
Matrix: in vitro
Concentration: 600 nM
Setting: 8-mer, flanks averaged, mean of replicates
Reading: higher = stronger binding
For `CATTGCTC`, the E-score was -0.14.
The E-score of `ACGGATCG` is reported as -0.214.
For `GGTGCGAA`, the E-score was -0.14.
`CAATACGG` has an E-score of -0.149.
The E-score of `ACGGTCCC` is reported as -0.31.
With `ATAACCGG` the E-score was 0.122.
With `TAGACACA` the E-score was 0.0547.
With `ACTCCCTA` the E-score was 0.0285.
With `AGAATACG` the E-score was 0.167.
The E-score of `CTCCATAA` is reported as 0.262.
For `CCGAATCG`, the E-score was -0.156.
For `GACCCATC`, the E-score was -0.178.
The E-score of `AAGGTTGG` is reported as -0.0785.
`ATTAAGCA` has an E-score of 0.206.
`AGGGCCCA` has an E-score of -0.372.
`CGTTACTA` gave an E-score of 0.156.
For `AAACATGC`, the E-score was 0.0568.
`CAAAGGTG` gave an E-score of -0.0489.
`CACCGAGG` has an E-score of -0.343.
`CGCGCACA` has an E-score of -0.182.
For `TACTCTCA`, the E-score was 0.108.
`CCACCCAC` has an E-score of -0.211.
`GCACGCAC` has an E-score of -0.247.
The E-score of `ATACGAAA` is reported as 0.18.
With `CATTTTCC` the E-score was 0.224.

Series 2
Target: CCND2, cyclin fold, Cln2 fusion (human)
Technique: yeast growth competition, sequencing
Matrix: yeast
Setting: weak parent motif
Reference: not given
Reading: higher = stronger binding
Starting sequence: CDC6 docking peptide (human); TLKGRRLVFDNQL
`V8A` — result for “normalised enrichment score”: -0.426.
Under “normalised enrichment score”, `V8R` is recorded as 0.425.
Under “normalised enrichment score”, `G4D` is recorded as 0.27.
Under “normalised enrichment score”, `D10V` is recorded as -0.315.
Under “normalised enrichment score”, `F9A` is recorded as -0.129.
`F9H`: “normalised enrichment score” 0.5.
`Q12F`: “normalised enrichment score” -0.125.
For `D10P`, “normalised enrichment score” read -0.174.
`V8M`: “normalised enrichment score” -0.108.
For `L13F`, “normalised enrichment score” read 0.54.
For `N11I`, “normalised enrichment score” read 0.196.
`G4Y` — result for “normalised enrichment score”: -0.0596.
`D10T`: “normalised enrichment score” 0.167.
`N11A` — result for “normalised enrichment score”: 0.629.
`F9M`: “normalised enrichment score” 0.127.
Under “normalised enrichment score”, `L7V` is recorded as -0.0306.
`R5L` — result for “normalised enrichment score”: 0.269.
`R6E`: “normalised enrichment score” -0.289.
`R5A L7A` — result for “normalised enrichment score”: 0.0876.
For `K3E`, “normalised enrichment score” read 0.23.
`L13D` — result for “normalised enrichment score”: 0.206.
`F9S` — result for “normalised enrichment score”: 0.0134.
`F9Q` — result for “normalised enrichment score”: 0.418.
For `L7R`, “normalised enrichment score” read 0.268.
For `V8K`, “normalised enrichment score” read 0.154.

Series 3
Target: RING finger protein unkempt homolog, zinc fingers 1-6, SBP tag (UNK, Homo sapiens, UniProt Q9C0B0, residues 30-357)
Sequence of UniProt Q9C0B0 (30-357, looked up): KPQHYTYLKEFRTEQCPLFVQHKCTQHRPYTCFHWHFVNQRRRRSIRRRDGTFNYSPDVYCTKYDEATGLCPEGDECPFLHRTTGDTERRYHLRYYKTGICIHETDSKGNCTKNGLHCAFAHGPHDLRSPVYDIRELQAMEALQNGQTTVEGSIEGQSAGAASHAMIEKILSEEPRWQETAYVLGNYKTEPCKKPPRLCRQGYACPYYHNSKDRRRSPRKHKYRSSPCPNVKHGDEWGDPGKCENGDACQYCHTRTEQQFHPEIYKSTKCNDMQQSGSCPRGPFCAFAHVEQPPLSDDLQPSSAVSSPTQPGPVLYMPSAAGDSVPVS
Technique: RNA Bind-n-Seq
Molecule type: RNA
Matrix: in vitro
Concentration: 100 nM
Setting: RNA with constant flanks, vertebrate orthologous sites, ends assumed
Reference: input RNA pool
Reading: higher = stronger binding
`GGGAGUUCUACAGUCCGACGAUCCUACUAUAAACAACUCAGGGCAGUAUUCUCGAUAUCCUUACAGUAACCUAAAUCAGGGAUUAGUUAACAAUACAGGGAUGAAUCAAAAUUUAGGCCUUACAAAUAAUACCCCAAUGAAUCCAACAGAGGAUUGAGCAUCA` has a bound/input enrichment of 1.88 ratio.
`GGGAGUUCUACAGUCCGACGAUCGCAACAAUGGCUCCUGCUCUAUUACAAAGAUAAGAAACAGUCCCACGCCUAAACAAUAAAUAGAUAUUUUUGAAGUUUAAAUAUUUACAUUUUGUAAGUCAGCUGUUUGGGAUGUCAUGUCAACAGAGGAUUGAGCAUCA` has a bound/input enrichment of 0.683 ratio.
The bound/input enrichment of `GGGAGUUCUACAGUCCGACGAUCGUUGGGCCAUGACCCCUAUAGAUUAGGUCAUGAUGCUUACAGGUUAGGACAGGACCCUUAUAGAUUAGGCCAUGAUCCCUACAGACUAACUCCUGAUCCCUAUAGGAUGUCACCUAGACCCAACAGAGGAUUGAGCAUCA` is reported as 0.967 ratio.
`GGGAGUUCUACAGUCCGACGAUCAGCAACUCAAGGAUUGAGGACAGGUUUUACAAAUAUACCAAGUAGAUAUGGAACUAAUAAUAGAAUUGGACAACCAAGACCAUGAUAGACUCUAACUUAUUUUUAUGAAGAAUAUUGAUUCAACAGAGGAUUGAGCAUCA` gave a bound/input enrichment of 0.703 ratio.
For `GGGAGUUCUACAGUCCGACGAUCUCUUAUUACACUCUUCUAGGGAAGAGAUGAACUGGGGAAAACUCUCUCCUUUUUAUAGAUUAAUUUGUCUCUAAAUUAUGACCAAAAAUAUUUUGCUAUUUCUUUCUUUAUAUAUGCACACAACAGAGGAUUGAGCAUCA`, the bound/input enrichment was 0.755 ratio.
`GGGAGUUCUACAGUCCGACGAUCAUUGGAUGCAGUGUAAAAUUAUCCAAGGCAGUGACUUCAGCUUUAUAUAUAUAUAAAAUAUAGUUAGUUUUAAAGUUAUUGACAUUUAUUUAAAGUUUUAGAUUGGAUUGUUAUUGCUCUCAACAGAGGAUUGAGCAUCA` has a bound/input enrichment of 1.24 ratio.
For `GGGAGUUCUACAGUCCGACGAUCCCUGUGUAGCAAUUAGAUGAUCUCCCCCCACCAUUUCCUUCGAAAAAAGAAAUGCCAAAAUAGAUUUCUUACCCAUCUGAUUGGACUCUUCUGGGUUUAUUAUUAUUUUUUAUAUAUGCACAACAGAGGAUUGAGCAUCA`, the bound/input enrichment was 2.93 ratio.
`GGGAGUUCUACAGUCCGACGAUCAGUUAUCCCAGUUUACUGUGUUGAGUUGGCAUUGUACAGAAAUUAACAGCCAUAUUGGUCUAGAAACGUUAAACUUAAUUUUUUUCCAUUUGUACAGGGGUAACGCACUGUAUUAAAUACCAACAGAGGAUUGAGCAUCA` has a bound/input enrichment of 0.751 ratio.
For `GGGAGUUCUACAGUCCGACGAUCGUACUACAAAAAAAAAAUCAUCCUAGUUUUAAGCUAACCACAGUGGUAACGAGUCUGUGCUAGUAGAAUCAUUUACUAUUACUUUUUAAAUUAUCUGCUUUGUUUGAUACCUGAAACCACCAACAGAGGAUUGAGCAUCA`, the bound/input enrichment was 1.94 ratio.
`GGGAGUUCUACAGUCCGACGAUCACAGGAGUAGUACAGGCUGUUUGAUCUUUGGAGAAAUGAGCUUUGCCUUUUAUAUUUAAAUAGGAUACUUUUAUAUGAUGGGUGCUUUGAGUGUGAAUGCAGCAGGCUCUCCAUUUCAGACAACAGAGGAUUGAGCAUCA` has a bound/input enrichment of 1.23 ratio.
With `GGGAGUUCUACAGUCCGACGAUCUUUAAUUUCUUGUAUACAUGAUCUAGUCCUGUAUUAUUAUUAUUUUCUUACACGAUUGUUUGUCAGUAUGUCUGUGUCUGUCACAUUUCCUUCUCAGGCGAAGGGCUAGAGUUAAAAAAACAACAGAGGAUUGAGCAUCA` the bound/input enrichment was 0.804 ratio.

Series 4
Target: Interferon regulatory factor 7, full length, phosphomimetic (IRF7, Homo sapiens, UniProt Q92985, residues 1-503, S471D/S472D/S475D/S476D/S477D/S483D/S484D/S487D)
Sequence of UniProt Q92985 (whole entry, unmodified, looked up): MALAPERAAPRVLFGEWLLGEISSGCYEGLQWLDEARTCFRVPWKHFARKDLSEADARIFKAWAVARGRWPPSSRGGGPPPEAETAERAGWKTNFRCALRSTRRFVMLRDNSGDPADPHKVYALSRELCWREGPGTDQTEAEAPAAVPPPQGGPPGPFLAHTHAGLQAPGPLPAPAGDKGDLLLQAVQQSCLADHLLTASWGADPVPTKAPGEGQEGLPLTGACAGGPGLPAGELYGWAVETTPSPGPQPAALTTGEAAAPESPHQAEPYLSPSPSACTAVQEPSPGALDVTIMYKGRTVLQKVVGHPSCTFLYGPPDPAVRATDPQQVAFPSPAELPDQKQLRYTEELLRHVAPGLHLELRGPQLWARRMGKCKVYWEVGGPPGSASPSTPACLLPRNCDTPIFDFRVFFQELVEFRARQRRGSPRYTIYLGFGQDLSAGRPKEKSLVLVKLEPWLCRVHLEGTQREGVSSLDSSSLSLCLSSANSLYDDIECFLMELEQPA
Technique: protein-binding microarray
Molecule type: double-stranded DNA, one strand shown
Matrix: in vitro
Concentration: 2200 nM top
Setting: 60-bp whole probe
Added: salmon DNA 0.4 mg/ml
Reference: random background probes
Reading: higher = stronger binding
Constant ends, left off below: GCCTAGCAC … GTCTTGATTCGCTTGACGCTGCTG
Under “fitted relative affinity”, `GACGGACTGTGGTATCGGGACGTGCTA` is recorded as -0.652 z-score.
`TTAGCTCTCGGTATCGGTTAGTGCTAG`: “fitted relative affinity” 0.896 z-score.
`TTAGGACTGGGACTGGGATAGTGCTAG`: “fitted relative affinity” -0.913 z-score.
For `GACTATATCGGGTATCGAGACGTGCTA`, “fitted relative affinity” read 0.32 z-score.
Under “fitted relative affinity”, `TTAGGTTTCGGGTATCGGTTTGTGCTA` is recorded as 7.19 z-score.
`TTAGGACTGGACACAGGGTTAGTGCTA`: “fitted relative affinity” -0.935 z-score.
For `TGAGATTCCAGTTTCGATTAGTGCTAG`, “fitted relative affinity” read 6.15 z-score.
`GATGGTTTCGGTTCCGGGACGTGCTAG` — result for “fitted relative affinity”: 12.3 z-score.
Under “fitted relative affinity”, `GACGAACTGGAGTTTCGAGACGTGCTA` is recorded as 1.56 z-score.
`TTAGATCTCAGTAACGATTAGTGCTAG`: “fitted relative affinity” -0.339 z-score.
`GACGATTTCAGACTAGAGACGTGCTAG`: “fitted relative affinity” 0.16 z-score.
`TCAAGTTTCTATTTTCTACTGTGCTAG`: “fitted relative affinity” 5.01 z-score.
Under “fitted relative affinity”, `TTAGGTAGCGACTTTCGGTTAGTGCTA` is recorded as 5.39 z-score.
`TTAGGACTAGGTATCGGTTAGTGCTAG` — result for “fitted relative affinity”: -0.0039 z-score.
`GACGATATCGGGACTGGAGTCGTGCTA` — result for “fitted relative affinity”: 0.0163 z-score.
`GACGATATCGGGTCTCGAGACGTGCTA` — result for “fitted relative affinity”: 0.217 z-score.
Under “fitted relative affinity”, `GAGGGACTGGACTTTCGGGACGTGCTA` is recorded as 1.75 z-score.
`TTAGGTCTCCTTTTCCCTTAGTGCTAG` — result for “fitted relative affinity”: 1.72 z-score.
For `GACGTACTGGGGACTGGAGACGTGCTA`, “fitted relative affinity” read -0.25 z-score.
For `GACGGTCTCGATATCGGGACGTGCTAG`, “fitted relative affinity” read 0.5 z-score.
`GACGATTTCAGACTGGAGGCGTGCTAG`: “fitted relative affinity” 0.306 z-score.
`GGCGATTTCAGACTGGAGACGTGCTAG`: “fitted relative affinity” -0.153 z-score.
`TTAGGACTGGGGACTGGCTTAGTGCTA` — result for “fitted relative affinity”: -1.06 z-score.
For `TTAGATATCGGGTTTCGAATAGTGCTA`, “fitted relative affinity” read 1.19 z-score.
Under “fitted relative affinity”, `TTAGATATCCGTCTCGATTAGTGCTAG` is recorded as 0.512 z-score.

Mixed results
`PhoQ, residues 284 288 289 292 302 303 ALASRC` has a fold induction of 4.19 and 11.6 (PhoP, residues 12 14 15 18 19 LWHSL (Escherichia coli, UniProt P23836); Sort-seq, measured: YFP reporter; E. coli; PhoQ-PhoP variant library, added: 10 µM Mg2+; reference: high Mg2+ state, higher = stronger signaling).

Repeated from above (series 4):
`TTAGGACTGGACACAGGGTTAGTGCTA`: “fitted relative affinity” -0.935 z-score.
`TTAGGACTGGGGACTGGCTTAGTGCTA` — result for “fitted relative affinity”: -1.06 z-score.
Under “fitted relative affinity”, `GACGGACTGTGGTATCGGGACGTGCTA` is recorded as -0.652 z-score.
`TTAGGACTAGGTATCGGTTAGTGCTAG` — result for “fitted relative affinity”: -0.0039 z-score.
For `GACGGTCTCGATATCGGGACGTGCTAG`, “fitted relative affinity” read 0.5 z-score.
For `GACGTACTGGGGACTGGAGACGTGCTA`, “fitted relative affinity” read -0.25 z-score.
`GGCGATTTCAGACTGGAGACGTGCTAG`: “fitted relative affinity” -0.153 z-score.
